Experimental data pooled from the literature.
Parts stem from different laboratories: compare values within a part only.

Block 1 — method: Sort-seq; refers to: YFP reporter; medium: E. coli; setting: PhoQ-PhoP variant library; together with: 10 µM Mg2+; baseline: high Mg2+ state; reading: higher = stronger signaling
Substance: PhoQ, residues 284 288 289 292 302 303 AQGLTV
target	fold induction
PhoP, residues 12 14 15 18 19 QYCSL (Escherichia coli, UniProt P23836)	1.33
PhoP, residues 12 14 15 18 19 STHWV (Escherichia coli, UniProt P23836)	3.57
PhoP, residues 12 14 15 18 19 SHWTV (Escherichia coli, UniProt P23836)	0.99

Block 2 — method: protein-binding microarray; form: double-stranded DNA, one strand shown; medium: in vitro; tested at: 250 nM; setting: 60-bp whole probe; together with: salmon DNA 0.4 mg/ml; baseline: random background probes; reading: higher = stronger binding; all sequences stand within: GCCTAGCAC … GTCTTGATTCGCTTGACGCTGCTG
Target: Interferon regulatory factor 7, full length, phosphomimetic (IRF7, Homo sapiens, UniProt Q92985, residues 1-503, S101K/S471D/S472D/S475D/S476D/S477D/S483D/S484D/S487D)
Construct (chain): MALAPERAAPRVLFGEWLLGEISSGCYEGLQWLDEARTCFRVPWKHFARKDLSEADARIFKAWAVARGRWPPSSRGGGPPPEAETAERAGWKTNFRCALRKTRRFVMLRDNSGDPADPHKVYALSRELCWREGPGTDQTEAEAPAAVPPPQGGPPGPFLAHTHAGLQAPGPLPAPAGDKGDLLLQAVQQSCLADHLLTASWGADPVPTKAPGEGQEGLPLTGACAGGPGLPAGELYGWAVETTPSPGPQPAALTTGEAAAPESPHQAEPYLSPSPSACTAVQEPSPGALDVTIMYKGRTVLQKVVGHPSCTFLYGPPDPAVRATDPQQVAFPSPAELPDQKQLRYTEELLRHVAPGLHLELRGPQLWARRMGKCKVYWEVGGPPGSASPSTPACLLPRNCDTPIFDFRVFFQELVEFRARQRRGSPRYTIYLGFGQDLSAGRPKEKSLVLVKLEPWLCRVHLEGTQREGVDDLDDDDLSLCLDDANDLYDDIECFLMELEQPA
Oligonucleotide	log fluorescence
CTGATTTCCACTTTCTTAATGTGCTAG	2.79 z-score
TTAGAACAGGGGACTGGATTAGTGCTA	-0.291 z-score
GACGATTTCAGACTGGGGACGTGCTAG	0.174 z-score
GACGGTTTCCTTACCCTGACGTGCTAG	1.49 z-score
TTAGGTGCCCTTTTCCTTTAGTGCTAG	0.514 z-score

Block 3 — method: protein-binding microarray; form: double-stranded DNA, one strand shown; medium: in vitro; tested at: not given; reading: higher = stronger binding
Target: Cyclic AMP-dependent transcription factor ATF-1 (ATF1, Homo sapiens, UniProt P18846, residues 1-271, full length assumed)
Setting: k-mer, scored over probes, only values ≥0.25
Construct (chain): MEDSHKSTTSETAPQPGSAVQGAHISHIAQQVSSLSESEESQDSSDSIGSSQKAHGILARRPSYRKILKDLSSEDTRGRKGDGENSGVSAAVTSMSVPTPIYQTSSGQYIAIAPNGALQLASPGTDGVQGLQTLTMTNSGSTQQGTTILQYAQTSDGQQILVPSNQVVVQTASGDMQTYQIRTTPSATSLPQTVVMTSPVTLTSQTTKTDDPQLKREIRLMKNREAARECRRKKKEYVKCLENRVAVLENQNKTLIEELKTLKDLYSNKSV
Oligonucleotide	E-score
AACCCAC	0.25
TGCGTAA	0.297
AACGTCA	0.479
GTCATAA	0.354
ACATCCA	0.27

Block 4 — method: protein binding microarray; form: double-stranded DNA, one strand shown; medium: in vitro; tested at: not given; baseline: not given; reading: higher = stronger binding
Target: Histone acetyltransferase KAT6A, winged helix 2, GST fusion (KAT6A, Homo sapiens, UniProt Q92794, residues 85-181)
Setting: 8-mer, flanks averaged, mean of 2 arrays, mostly near background
Residues (chain): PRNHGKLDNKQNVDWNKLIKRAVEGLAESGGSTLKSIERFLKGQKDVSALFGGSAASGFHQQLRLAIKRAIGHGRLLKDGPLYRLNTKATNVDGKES
Oligonucleotide	E-score
AAGCCTTA	-0.188
TGCGCCCA	-0.0556
GGAATCTA	-0.185
AAGTTCCT	-0.0833
GAGGTGAC	0.16
ATTGAACA	-0.0609

Excerpt of the above (block 3):
Oligonucleotide	E-score
GTCATAA	0.354
